Results from different studies.
Each line is one published result; not all experiments were run side by side. ± marks the error that the study gave.
CYP2E1: Cytochrome P450 2E1 (CYP2E1, Homo sapiens, UniProt P05181)
Sequence of UniProt P05181 (whole entry, looked up): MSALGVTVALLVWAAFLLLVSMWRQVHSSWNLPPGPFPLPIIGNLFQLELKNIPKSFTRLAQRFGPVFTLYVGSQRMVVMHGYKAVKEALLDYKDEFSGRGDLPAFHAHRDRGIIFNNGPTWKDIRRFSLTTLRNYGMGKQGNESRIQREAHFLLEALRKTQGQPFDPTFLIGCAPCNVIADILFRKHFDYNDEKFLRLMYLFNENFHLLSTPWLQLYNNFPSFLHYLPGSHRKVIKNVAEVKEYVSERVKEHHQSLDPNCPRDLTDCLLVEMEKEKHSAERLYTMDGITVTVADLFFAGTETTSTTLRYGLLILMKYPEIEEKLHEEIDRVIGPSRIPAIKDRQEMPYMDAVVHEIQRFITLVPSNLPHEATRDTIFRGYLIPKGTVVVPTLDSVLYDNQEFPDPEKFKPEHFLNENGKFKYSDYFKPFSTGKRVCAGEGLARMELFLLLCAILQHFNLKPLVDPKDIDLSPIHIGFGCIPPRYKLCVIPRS
AHR: Aryl hydrocarbon receptor (AHR, Homo sapiens, UniProt P35869)
Sequence of UniProt P35869 (whole entry, looked up): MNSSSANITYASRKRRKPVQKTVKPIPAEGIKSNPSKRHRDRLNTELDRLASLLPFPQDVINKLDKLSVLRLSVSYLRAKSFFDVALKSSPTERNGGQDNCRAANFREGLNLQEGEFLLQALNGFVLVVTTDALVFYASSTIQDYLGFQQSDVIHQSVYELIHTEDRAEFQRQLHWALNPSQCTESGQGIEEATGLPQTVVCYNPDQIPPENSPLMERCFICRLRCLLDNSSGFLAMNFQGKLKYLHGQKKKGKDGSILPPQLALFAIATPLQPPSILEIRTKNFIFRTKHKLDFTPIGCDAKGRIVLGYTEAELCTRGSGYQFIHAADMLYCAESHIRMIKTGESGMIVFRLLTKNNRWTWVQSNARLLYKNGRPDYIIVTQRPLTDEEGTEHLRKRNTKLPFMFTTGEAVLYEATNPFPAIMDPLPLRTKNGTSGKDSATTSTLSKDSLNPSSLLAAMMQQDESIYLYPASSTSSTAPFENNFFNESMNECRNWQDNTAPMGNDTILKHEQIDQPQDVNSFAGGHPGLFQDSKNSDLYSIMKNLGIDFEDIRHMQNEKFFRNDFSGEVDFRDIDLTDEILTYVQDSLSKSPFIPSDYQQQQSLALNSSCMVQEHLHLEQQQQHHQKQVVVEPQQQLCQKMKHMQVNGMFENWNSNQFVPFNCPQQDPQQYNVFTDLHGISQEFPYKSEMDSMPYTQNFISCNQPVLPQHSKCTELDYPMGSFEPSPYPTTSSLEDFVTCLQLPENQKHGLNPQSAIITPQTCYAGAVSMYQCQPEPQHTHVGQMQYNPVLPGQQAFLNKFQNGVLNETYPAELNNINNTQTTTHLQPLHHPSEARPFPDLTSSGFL
Sequence of UniProt O15245 (whole entry, looked up): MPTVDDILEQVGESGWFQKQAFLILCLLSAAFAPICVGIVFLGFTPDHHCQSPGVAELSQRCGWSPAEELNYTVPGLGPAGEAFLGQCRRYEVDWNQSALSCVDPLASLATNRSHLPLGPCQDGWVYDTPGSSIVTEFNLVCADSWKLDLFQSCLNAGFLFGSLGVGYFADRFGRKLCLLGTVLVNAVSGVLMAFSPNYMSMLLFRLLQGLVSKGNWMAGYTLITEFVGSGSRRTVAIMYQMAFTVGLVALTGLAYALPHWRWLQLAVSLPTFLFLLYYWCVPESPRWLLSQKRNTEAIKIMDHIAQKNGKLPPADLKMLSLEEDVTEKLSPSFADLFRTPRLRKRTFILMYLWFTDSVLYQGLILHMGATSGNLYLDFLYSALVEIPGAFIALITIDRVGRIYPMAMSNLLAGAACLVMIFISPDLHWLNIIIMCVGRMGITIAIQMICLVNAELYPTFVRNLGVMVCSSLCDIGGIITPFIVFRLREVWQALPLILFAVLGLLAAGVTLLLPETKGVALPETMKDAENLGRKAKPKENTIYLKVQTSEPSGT
Sequence of UniProt O94956 (whole entry, looked up): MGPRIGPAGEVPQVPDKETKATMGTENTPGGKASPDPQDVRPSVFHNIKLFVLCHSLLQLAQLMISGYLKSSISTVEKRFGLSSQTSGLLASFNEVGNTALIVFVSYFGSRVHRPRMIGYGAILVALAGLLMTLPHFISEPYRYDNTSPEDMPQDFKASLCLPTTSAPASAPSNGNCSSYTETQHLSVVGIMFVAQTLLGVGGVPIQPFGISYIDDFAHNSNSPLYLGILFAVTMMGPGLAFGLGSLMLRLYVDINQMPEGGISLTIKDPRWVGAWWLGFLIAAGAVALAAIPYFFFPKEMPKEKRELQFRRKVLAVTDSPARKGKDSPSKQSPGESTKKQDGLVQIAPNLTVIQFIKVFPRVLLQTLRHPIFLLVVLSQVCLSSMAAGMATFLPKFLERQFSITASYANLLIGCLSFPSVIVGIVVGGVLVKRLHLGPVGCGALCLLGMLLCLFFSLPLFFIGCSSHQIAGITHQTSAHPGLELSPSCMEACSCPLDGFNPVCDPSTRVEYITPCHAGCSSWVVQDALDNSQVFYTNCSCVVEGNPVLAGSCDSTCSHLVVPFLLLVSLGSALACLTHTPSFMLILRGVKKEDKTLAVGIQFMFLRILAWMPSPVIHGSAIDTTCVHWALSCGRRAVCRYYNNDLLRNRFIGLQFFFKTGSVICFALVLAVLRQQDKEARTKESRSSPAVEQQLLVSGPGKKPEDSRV
Sequence of UniProt Q9Y6L6 (whole entry, looked up): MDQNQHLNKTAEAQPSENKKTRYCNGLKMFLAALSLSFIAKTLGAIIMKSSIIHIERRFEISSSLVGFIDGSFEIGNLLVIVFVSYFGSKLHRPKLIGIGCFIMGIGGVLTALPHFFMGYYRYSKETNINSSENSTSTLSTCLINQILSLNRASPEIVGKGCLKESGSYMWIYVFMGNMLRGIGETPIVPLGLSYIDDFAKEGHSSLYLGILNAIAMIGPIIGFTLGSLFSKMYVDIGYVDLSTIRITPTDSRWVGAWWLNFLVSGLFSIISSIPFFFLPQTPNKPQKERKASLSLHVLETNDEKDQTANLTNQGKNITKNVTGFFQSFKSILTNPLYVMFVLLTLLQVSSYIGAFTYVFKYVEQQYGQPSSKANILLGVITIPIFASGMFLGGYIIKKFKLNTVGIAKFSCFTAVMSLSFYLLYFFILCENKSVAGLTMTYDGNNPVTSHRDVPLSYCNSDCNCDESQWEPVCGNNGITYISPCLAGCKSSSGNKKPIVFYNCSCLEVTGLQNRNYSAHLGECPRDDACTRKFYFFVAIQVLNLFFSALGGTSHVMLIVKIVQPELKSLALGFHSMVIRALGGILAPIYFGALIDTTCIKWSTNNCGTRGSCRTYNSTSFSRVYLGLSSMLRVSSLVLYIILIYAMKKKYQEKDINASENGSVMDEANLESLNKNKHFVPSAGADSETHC
Sequence of UniProt P22460 (whole entry, looked up): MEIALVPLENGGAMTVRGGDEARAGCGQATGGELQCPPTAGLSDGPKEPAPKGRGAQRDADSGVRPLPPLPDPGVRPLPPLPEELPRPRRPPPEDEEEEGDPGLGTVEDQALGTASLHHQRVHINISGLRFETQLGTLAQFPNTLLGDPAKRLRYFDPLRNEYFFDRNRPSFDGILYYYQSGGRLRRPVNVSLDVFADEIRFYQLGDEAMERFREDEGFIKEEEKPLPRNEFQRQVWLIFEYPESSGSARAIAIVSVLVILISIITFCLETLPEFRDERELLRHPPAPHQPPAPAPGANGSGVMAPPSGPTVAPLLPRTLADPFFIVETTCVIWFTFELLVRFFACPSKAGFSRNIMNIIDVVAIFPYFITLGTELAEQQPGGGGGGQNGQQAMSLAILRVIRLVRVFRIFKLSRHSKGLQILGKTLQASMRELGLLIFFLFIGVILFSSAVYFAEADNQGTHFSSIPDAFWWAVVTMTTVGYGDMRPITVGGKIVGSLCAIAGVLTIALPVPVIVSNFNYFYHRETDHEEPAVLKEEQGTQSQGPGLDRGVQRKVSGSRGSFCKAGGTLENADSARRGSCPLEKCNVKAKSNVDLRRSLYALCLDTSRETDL

Compound | target | assay | test system | conditions | scale | endpoint | value
O=C(O)C(F)(F)C(F)(F)C(F)(F)C(F)(F)C(F)(F)C(F)(F)C(F)(F)F | Solute carrier organic anion transporter family member 1B1 (SLCO1B1, Homo sapiens, UniProt Q9Y6L6) | uptake, substrate | CHO cells stably expressing SLCO1B1 | 1 min, 37 °C | – | Jmax | 2300 ± 295 pmol/min/mg protein
CC1(C)C(C=C(Cl)Cl)C1C(=O)OC(C#N)c1ccc(F)c(Oc2ccccc2)c1 (centres unmarked) | human CYP3A5 | IVIVE from expressed enzymes | human, liver, in vivo scaled | 0.1 µM, age-specific | – | enzyme contribution to CLint | 0.2%
C=CC1CO1 (centres unmarked) | CYP2E1 | inhibitor | human liver microsomes | – | – | Ki | 140 µM
Clc1ccc(-c2ccc(Cl)cc2Cl)cc1 | AHR | reporter gene, antagonist | AZ-AHR cells | 40 µM, together with: TCDD 4.5 nM | reference: TCDD 4.5 nM | maximum activity | 24%
CC(C)=CC1C(C(=O)OC(C#N)c2cccc(Oc3ccccc3)c2)C1(C)C (centres unmarked) | human microsomal CES1 | IVIVE from expressed enzymes | human, 5 years old | – | reference: total hepatic CLint in vivo | relative enzyme contribution | 50.7%
CC[C@H]1OC(=O)[C@H](C)[C@@H](O[C@H]2C[C@@](C)(OC)[C@@H](O)[C@H](C)O2)[C@H](C)[C@@H](O[C@@H]2O[C@H](C)C[C@H](N(C)C)[C@H]2O)[C@](C)(O)C[C@@H](C)CN(C)[C@H](C)[C@@H](O)[C@]1(C)O | Solute carrier family 22 member 1 (SLC22A1, Homo sapiens, UniProt O15245) | transport, inhibitor | – | 50 µM, 10 (unit not given), together with: metformin | – | inhibition | -2.8%
O=C(NCCN1CCCC1)c1cc(-c2ccc(CN3CCOCC3)cc2)nc2ccc(F)cc12 | Potassium voltage-gated channel subfamily A member 5 (KCNA5, Homo sapiens, UniProt P22460) | ion current, inhibitor, IonWorks patch clamp | – | 100 µM (highest tested) | – | inhibition | no inhibition
COc1ccc2cc1Oc1ccc(cc1)C[C@H]1c3cc(c(OC)cc3CCN1C)Oc1c(OC)c(OC)cc3c1[C@H](C2)N(C)CC3 | Solute carrier organic anion transporter family member 2B1 (SLCO2B1, Homo sapiens, UniProt O94956) | transport, inhibitor | – | 10 µM, together with: ES | – | inhibition | -22.9%
CC1(C)[C@H](C=C(Cl)Cl)[C@H]1C(=O)OCc1cccc(Oc2ccccc2)c1 | human microsomal CES1 | IVIVE from expressed enzymes | human, 6 months old, expressed human CES1 | 0.1 µM | reference: total hepatic CLint in vivo | relative enzyme contribution | 53.5%
Clc1ccc(Cl)c(-c2ccccc2Cl)c1 | AHR | reporter gene, antagonist | AZ-AHR cells | 40 µM, together with: TCDD 4.5 nM | reference: TCDD 4.5 nM | maximum activity | 100%
CC(C)CC(=O)OC[C@H]1O[C@@](C#N)(c2ccc3c(N)ncnn23)[C@H](O)[C@@H]1O | CYP2E1 | metabolic stability | recombinant enzyme | 1 µM | – | intrinsic clearance | < 0.0353 µL/min/pmol

Repeated from above:
Compound | target | assay | test system | conditions | scale | endpoint | value
O=C(NCCN1CCCC1)c1cc(-c2ccc(CN3CCOCC3)cc2)nc2ccc(F)cc12 | Potassium voltage-gated channel subfamily A member 5 (KCNA5, Homo sapiens, UniProt P22460) | ion current, inhibitor, IonWorks patch clamp | – | 100 µM (highest tested) | – | inhibition | no inhibition
COc1ccc2cc1Oc1ccc(cc1)C[C@H]1c3cc(c(OC)cc3CCN1C)Oc1c(OC)c(OC)cc3c1[C@H](C2)N(C)CC3 | Solute carrier organic anion transporter family member 2B1 (SLCO2B1, Homo sapiens, UniProt O94956) | transport, inhibitor | – | 10 µM, together with: ES | – | inhibition | -22.9%
